Experimental data pooled from the literature.
Each numbered part is a random draw from the data of one study; scales do not carry over between parts.

Study 1
Target: Interferon regulatory factor 7, full length, phosphomimetic (IRF7, Homo sapiens, UniProt Q92985, residues 1-503, S471D/S472D/S475D/S476D/S477D/S483D/S484D/S487D)
Method: protein-binding microarray
Molecule type: double-stranded DNA, one strand shown
Sample: in vitro
Tested at: 2200 nM top
Setting: 60-bp whole probe
With: salmon DNA 0.4 mg/ml
Relative to: random background probes
Reading: higher = stronger binding
Endpoint: fitted relative affinity
Shared flanks, not repeated: GCCTAGCAC … GTCTTGATTCGCTTGACGCTGCTG
Residues (chain): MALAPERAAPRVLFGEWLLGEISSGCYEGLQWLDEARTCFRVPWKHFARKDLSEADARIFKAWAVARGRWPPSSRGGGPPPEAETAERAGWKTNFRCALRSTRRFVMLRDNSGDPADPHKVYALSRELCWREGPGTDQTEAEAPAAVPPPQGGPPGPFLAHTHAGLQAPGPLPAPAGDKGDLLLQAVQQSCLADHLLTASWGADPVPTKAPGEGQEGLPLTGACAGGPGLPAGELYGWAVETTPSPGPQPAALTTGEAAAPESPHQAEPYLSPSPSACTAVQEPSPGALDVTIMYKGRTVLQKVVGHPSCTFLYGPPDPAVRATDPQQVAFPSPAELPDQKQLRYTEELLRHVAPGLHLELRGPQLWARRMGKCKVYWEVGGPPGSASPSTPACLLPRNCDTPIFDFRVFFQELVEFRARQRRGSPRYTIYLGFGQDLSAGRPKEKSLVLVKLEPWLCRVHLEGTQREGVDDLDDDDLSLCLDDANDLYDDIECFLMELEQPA
TAAGATATCGGGACTGGATTAGTGCTA: -0.36 z-score
GACGATCTGGGGTTTCGAGACGTGCTA: 1.41 z-score
TTAGATTTCAGTTCGGATTAGTGCTAG: 1.48 z-score
TCATCTTGCAGTATGGAACTGTGCTAG: 1.3 z-score
GACGGACTGCTTTTCCTGAGGTGCTAG: 0.165 z-score
TTAGATACCAGTCTCGATTAGTGCTAG: 0.609 z-score
TTAGAAATGAGACTGGATTAGTGCTAG: -1.04 z-score
TTAGGTATCCTTTTTCTTTAGTGCTAG: 0.92 z-score
TCACCCCTCTAGGTTCTCACTGTGCTA: 0.656 z-score
CCTTTTTTGTTGTTTTTTGGGTGCTAG: 2.79 z-score
TTAGGTATCCGGTTTCGGTTAGTGCTA: 5.56 z-score
GACGAGTTCAGTATCGAGACGTGCTAG: 0.272 z-score
GACGGACTGCTTATCCTGACGTGCTAG: 0.506 z-score
TTGTGTTGCTGTTTGAGGAAGTGCTAG: 1.78 z-score
GACGGACTGGGTCTCCGGACGTGCTAG: -0.926 z-score
TTAGGTTTCCTTTCCCCTTAGTGCTAG: 4.48 z-score
TCAATTTTCAGAATTTAACTGTGCTAG: 0.825 z-score
GACGGTCTCCATATCCTGACGTGCTAG: 0.949 z-score
TCAGATTTTGGTCTTTCACTGTGCTAG: 1.19 z-score
TAAGGTTTCGACTATCGGTTAGTGCTA: 3.1 z-score
ACCCGAGTCCCTATCTCCTCGTGCTAG: 1.22 z-score
TTTGGTTTCGACTATCGGTTAGTGCTA: 5 z-score

Study 2
Target: Ras GTPase-activating protein-binding protein 1, RRM domain (G3BP1, Homo sapiens, UniProt Q13283)
Chain of UniProt Q13283 (whole entry, looked up): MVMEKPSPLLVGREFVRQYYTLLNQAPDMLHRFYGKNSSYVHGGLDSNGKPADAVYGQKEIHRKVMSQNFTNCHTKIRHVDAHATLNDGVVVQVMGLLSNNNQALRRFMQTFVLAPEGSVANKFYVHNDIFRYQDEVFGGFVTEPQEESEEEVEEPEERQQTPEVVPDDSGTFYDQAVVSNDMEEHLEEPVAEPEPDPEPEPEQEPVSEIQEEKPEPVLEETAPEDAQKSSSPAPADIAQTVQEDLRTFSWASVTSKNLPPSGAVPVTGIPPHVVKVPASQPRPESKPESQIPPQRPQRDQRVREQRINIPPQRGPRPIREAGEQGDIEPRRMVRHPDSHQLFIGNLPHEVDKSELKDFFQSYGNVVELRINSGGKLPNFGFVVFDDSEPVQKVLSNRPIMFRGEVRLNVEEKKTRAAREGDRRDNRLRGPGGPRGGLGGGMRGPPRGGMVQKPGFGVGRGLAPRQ
Method: RNA Bind-n-Seq
Molecule type: RNA
Sample: in vitro
Tested at: 1 µM
Setting: whole 134-nt RNA, ends assumed
With: 150 mM KCl
Relative to: input library
Reading: higher = stronger binding
Endpoint: log2 enrichment
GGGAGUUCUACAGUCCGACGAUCGUCCUGUGCUACACAUCGUAUGUACCGAAUCGGGGUGGGGUUUGGGGAAAAAAAGGGGAAAGUAUUAUGUUACGCCGUUCGGAUCUGCACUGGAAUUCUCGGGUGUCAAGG: 0.737
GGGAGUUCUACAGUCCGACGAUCCACAGACAACACGCACCCACACAGACACAGAGGGAAGGGGUUGGGAUGAGGACAGGGUGCACAGCAGGGCGGGGUAGGACCCCAGCCCCUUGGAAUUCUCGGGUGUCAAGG: 0.00804
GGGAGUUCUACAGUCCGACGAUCUGGCCCUGGUGGCAUGCGGGGUGGAAGAGGUGGCCUCAUGGAUCGUGGUGGUCCCGGUGGAAUGUUCAGAGGUGGCCGUGGUGGAGACAGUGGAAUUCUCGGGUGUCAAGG: 0.92
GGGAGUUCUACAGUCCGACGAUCCCUGUGCUACACAUCGUAUGUACCGAAUCGGGGCCCCCCGGGGCCCCCCGGGGCCCCCCGGAAAGUAUUAUGUUACGCCGUUCGGAUCUGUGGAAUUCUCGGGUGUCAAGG: -0.71
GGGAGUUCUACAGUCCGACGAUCCAAGUCCUGUGCUACACAUCGUAUGUACCGAAUCGGAGGAAAAAAAGGUUUUUGGAAAGUAUUAUGUUACGCCGUUCGGAUCUGCACUUCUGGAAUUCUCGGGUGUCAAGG: -0.198
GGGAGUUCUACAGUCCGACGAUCCCUCAAGUCCUGUGCUACACAUCGUAUGUACCGAAUCGGUGGAGGAAAAAGGAAAGUAUUAUGUUACGCCGUUCGGAUCUGCACUUCCAGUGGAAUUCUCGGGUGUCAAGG: -0.137
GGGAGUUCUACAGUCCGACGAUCUGGGAGGUGGGUUUUGUUUAUUUUUUUAGCUCAUUUCCAGGGGUGGGAAUUUUUUUUUAAUAUGUGUCAUGAAUAAAGUUGUUUUUGAAAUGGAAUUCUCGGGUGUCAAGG: 1.4
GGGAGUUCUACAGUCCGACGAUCUCAAGUCCUGUGCUACACAUCGUAUGUACCGAAUCGGGGUUGGUUGGGGUUGGGGAAAGUAUUAUGUUACGCCGUUCGGAUCUGCACUUCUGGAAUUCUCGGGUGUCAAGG: 0.195
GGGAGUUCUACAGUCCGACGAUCUCCGCACACCCGGCCUGUCACCCUGCUUUCCCUGCCUCUACUUGACUUGGAAUUGGCUGAAGACUACACAGGAAUGCAUCGUUCCCACUCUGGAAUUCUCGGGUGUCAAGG: 0.0388
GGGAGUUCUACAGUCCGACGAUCCCUCAAGUCCUGUGCUACACAUCGUAUGUACCGAAUCGGGUGGGUGGGGUGGAAAGUAUUAUGUUACGCCGUUCGGAUCUGCACUUCCAGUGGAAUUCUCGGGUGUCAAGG: 0.185

Study 3
Target: Histone acetyltransferase KAT6A, winged helix 2, GST fusion (KAT6A, Homo sapiens, UniProt Q92794, residues 85-181)
Method: protein binding microarray
Molecule type: double-stranded DNA, one strand shown
Sample: in vitro
Tested at: not given
Setting: 8-mer, flanks averaged, mean of 2 arrays, mostly near background
Relative to: not given
Reading: higher = stronger binding
Endpoint: E-score
Residues (chain): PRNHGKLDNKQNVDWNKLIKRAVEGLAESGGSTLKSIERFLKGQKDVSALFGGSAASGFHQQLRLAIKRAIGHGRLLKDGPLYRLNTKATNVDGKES
ATCAGTGA: 0.0973
ATACTAAG: -0.0112
CTCCTAAA: -0.136
CTTAGTTA: 0.0671
AACTTAAA: -0.0986
CACCCGTC: 0.13
AGTAGTTG: -0.0173
CGGTTCAG: -0.0665
CCCTTTAA: 0.0135
AAAAAATG: 0.166
CATTAGAA: 0.181
GCGGTATA: -0.0477
AGTGTATC: -0.136
AATCGCCG: 0.055
GAGACACC: -0.0426
ATTAGACG: -0.109
AGGGGTCA: -0.0749
GCCAAGCA: -0.0108
AGGTCGGA: 0.0708
GGAGCCAC: 0.0317
CAACCCAC: 0.0637
CAACATTG: -0.0969
TCAGAACA: 0.0538
AGTAGTTA: -0.223
CGGGGTGA: 0.0484

Study 4
Target: RNA binding protein fox-1 homolog 2, RRM domain, GST-SBP tag (RBFOX2, Homo sapiens, UniProt O43251-10, residues 100-194)
Method: RNA Bind-n-Seq
Molecule type: RNA
Sample: in vitro
Tested at: 365 nM
Setting: natural RNA segment, single round, ends assumed
Relative to: no-protein control
Reading: higher = stronger binding
Endpoint: RBNS enrichment (R)
Residues (chain): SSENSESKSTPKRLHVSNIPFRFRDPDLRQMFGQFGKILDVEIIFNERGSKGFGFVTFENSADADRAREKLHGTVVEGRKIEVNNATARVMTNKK
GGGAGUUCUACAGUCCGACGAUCUAAAUCAUUAGGAUAACUCCUGUCUGGUUCCUAAUGAAUAAAAGGUGUGUUAAAUACCAAGAUUAUUGACGUAUAUACUAAUCAGCUCCAAAUCACAUACAGUUUAAUCUUGGAAUUCUCGGGUGCCAA: 0.608
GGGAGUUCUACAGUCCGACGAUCCCUGCUGUGGUUAACCUGUUAUGUUGCUUUUGGAAGGAGACUCUAAGACAGGGAAAGCAAGUUCAUGGUACAUACGCAGCCAUUGUCUCUGUUUUUACCCAUGGCAGACAUGGAAUUCUCGGGUGCCAA: 1.1
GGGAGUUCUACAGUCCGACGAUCAGUCCUGGUUCCCUUGCCCGCGUGGGACCCCAAUAGAACUCAGCCCUUCCAUGCCAGCCCUUCCUGCUGCCUCCCUCCUGUCUGGCUCCUGGGGCCCAUGCUUAGAGCCCUGGAAUUCUCGGGUGCCAA: 1.04
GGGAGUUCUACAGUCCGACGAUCAUCUUCAAUGUUAACCCAAAGGAUUCUGAGAUAAAAAUUAUGUGUCAUCUAAACUUCAGUUUACAGACAAAAUUAGAGCUUUGUUUUAUUUGGAGAAGGGGGAUGCAUUCUGGAAUUCUCGGGUGCCAA: 0.436
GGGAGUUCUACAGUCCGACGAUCAAGAGUCCCUUGUUAAAGGGGCAGUGGGAGUUAUGGGGUCAUCAAGGACCUUGCCUCUCUGGAAUCUGUCAACCCAGUUUUGGGCUCCAGGUGGAUGGGUUGCUUUAUAAUGGAAUUCUCGGGUGCCAA: 0.315
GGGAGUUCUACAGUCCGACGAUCUUAUCAUAGAAUUUUUUAAUGAAACUAAAUUCAAUUGAAAUAAAUGAUAGUUUUCAUCUCCAUUCAGGAUCUGUAUUUCUGUGCUUCAAGGGAUUCCUGACUCAUGUUCUUGGAAUUCUCGGGUGCCAA: 0.289
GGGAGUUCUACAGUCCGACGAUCUGUUGUCACCCCAUGUGUUGUGUGUGACCUGUCCUCGUGUGCCCUUGGUGUCUGACUUCAGAGAGUCCUACAUGAACUCAGUAAUCCACAUCUCUCACACAGCUGAGAGUUGGAAUUCUCGGGUGCCAA: 0.261
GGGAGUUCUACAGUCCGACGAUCAAGAGAGACGUCAGAAGAUGUUAGAAUAGGUCAAAGCCAAGGCUCUGGUGGGCUGAGGGAAGGUUUGUAGCUGCGUUUAGUGGUAUACAUCUUUAGUCCCAGCAUAGGCAUGGAAUUCUCGGGUGCCAA: 0.544
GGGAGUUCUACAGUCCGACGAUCAUGGGAAAUUGAAGCAGGAAAUAUUGAGGGCUUCUUGAUCACAGAAAACUCAGAAGAGAUAGUAAUGCUCAGGACAGGAGCGGCAGCCCCAGAACAGGCCACUCAUUUAGUGGAAUUCUCGGGUGCCAA: 0.563
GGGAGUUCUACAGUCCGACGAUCUGUGGCCUCAGCCAGGAGCGCACUGGCCAGUCUCCCAGGCCUGGAAGCACUGCAGUGUGCAGAGGCUCUCCUUGACCUUUCUACUUUUGACACGGGUCCCUGUUCGAGAAUGGAAUUCUCGGGUGCCAA: 0.299
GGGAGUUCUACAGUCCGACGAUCGGGGAGUUUGCUUGGGGCUCUAAGUCUGGGGUAGGUUCUGGGCCUUCACAGAAUGAUGGCAUCUUCCUAAACCCUUCUGGGAGAUGUCUGAGAAGUUGUGAAGGGUCCAGUGGAAUUCUCGGGUGCCAA: 0.532
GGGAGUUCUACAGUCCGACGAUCUCUCUGGUACUAGCUGCUGUAGCAGUGCCCUUCAUCCAGGGCAGUUAAUGGAGUCUUGGACCCUUUCUUUCUCUGGGAUCCCUGCCCAGCACCUUCCUAUAGAGAUGACUUGGAAUUCUCGGGUGCCAA: 0.284

Repeated from above (study 1):
GACGAGTTCAGTATCGAGACGTGCTAG: 0.272 z-score
GACGGACTGCTTATCCTGACGTGCTAG: 0.506 z-score
TTGTGTTGCTGTTTGAGGAAGTGCTAG: 1.78 z-score
GACGGACTGGGTCTCCGGACGTGCTAG: -0.926 z-score
TTAGGTTTCCTTTCCCCTTAGTGCTAG: 4.48 z-score
TCAATTTTCAGAATTTAACTGTGCTAG: 0.825 z-score
GACGGTCTCCATATCCTGACGTGCTAG: 0.949 z-score
